Assay results collected from several papers.
± marks the error that the study gave. Converted amounts (≈) assume the structure as drawn.

Structure (SMILES) | test | test system | conditions | scale | endpoint | result
Cc1[nH]c(=O)c(CNC(=O)c2ccc([N+](=O)[O-])s2)c2c1CCCC2 | U-HPLC | 20% DMSO in water | – | – | kinetic solubility | 130 µg/mL (≈ 373 µM)
CCCC[C@H](NC(C)=O)C(=O)N[C@H]1CCC(=O)NC[C@@H](C(=O)N[C@@H](Cc2c[nH]c3ccccc23)C(N)=O)NC(=O)[C@H](CCCNC(=N)N)NC(=O)[C@@H](Cc2ccccc2)NC(=O)[C@H](Cc2c[nH]cn2)NC1=O | – | beagle dog, male, plasma | subcutaneous, 1.5 mg/kg daily, day 28 | – | AUC(0-last) | 194 ng·h/mL
CNC(=O)c1ccc(-c2cnc3ncc(Cc4ccc5ncccc5c4)n3n2)cc1F | – | human, severe hepatic impairment (Child-Pugh C), plasma | oral, 200 mg single dose | – | Cmax (mean) | 2020 ng/mL
COc1ccc(-c2cc(=O)c3c(OC)c(OC)c(OC)c(OC)c3o2)cc1 | – | C57BL/6 mouse, male, kidney | oral, 1% w/w in diet, 6 weeks, orange peel extract diet | relative to: content in orange peel | tissue to peel content ratio | 0.013%
CCN(CC)CCNC(=O)c1c(C)[nH]c(/C=C2\C(=O)Nc3ccc(F)cc32)c1C | – | human, plasma | oral, 15 mg/m2, day 21 | – | minimum trough plasma concentration | 8.9 ng/mL
C[C@]12CC[C@@H]3c4ccc(O)cc4CC[C@H]3[C@@H]1C[C@@H](O)[C@@H]2O | GC-MS | breast cancer women on NSAI, serum | vaginal, 0.03 mg, 24 h, day 0 | – | mean serum concentration | 0 ng/mL
CC[C@H](C)[C@@H]1NC(=O)[C@H](Cc2ccc(O)cc2)NC(=O)[C@@H](N)CSSC[C@@H](C(=O)N2CCC[C@H]2C(=O)N[C@@H](CC(C)C)C(=O)NCC(N)=O)NC(=O)[C@H](CC(N)=O)NC(=O)[C@H](CCC(N)=O)NC1=O | microdialysis, radioimmunoassay | knock-out male mice lacking compound, amygdala extracellular fluid | intranasal, 12 µg, incremental area over baseline | – | AUC above baseline | 254 ± 113 pg·30 min/sample
Oc1ncnc2[nH]ncc12 | – | human, male, plasma | oral, 10 mg, added: allopurinol 300 mg | relative to: combination over alone | AUC(0-24) ratio | 102%
CC(=O)N[C@@H](CCCCN)C(=O)N[C@@H](CCCCN)C(=O)N[C@@H](CCCNC(=N)N)C(=O)N[C@@H](Cc1ccc(O)cc1)C(=O)N[C@@H](CO)C(=O)N[C@@H](CCCNC(=N)N)C(=O)N[C@@]1(C)CCCC=CCCC[C@@](C)(C(=O)N[C@@H](CC(C)C)C(N)=O)NC(=O)[C@H](CC(C)C)NC(=O)[C@H](CC(C)C)NC(=O)[C@H](CCC(N)=O)NC1=O | CD spectroscopy | sodium phosphate buffer | 25 to 100 µM, pH 7.4, 25 °C | – | helicity | 38%
NCCN[C@H]1CC[C@H](CC(=O)N[C@H]2Cc3cccc(C(=O)O)c3OB2O)CC1 | – | humans | intravenous infusion, dose not given, 8 h after third infusion start | – | epithelial lining fluid concentration | 0.3 mg/L
Cn1c(-c2ccc(C(N)=O)cc2F)nnc1C(C)(C)Oc1c(F)cc(Cl)cc1F | – | healthy young Japanese subjects, plasma | oral, 20 mg once daily, day 18, 14 days dosing | – | Cmax mean | 294 ng/mL
CC1=C2C[C@H]3[C@@H](CC[C@@H]4C[C@H](NS(C)(=O)=O)CC[C@@]43C)[C@@H]2CC[C@@]2(C1)O[C@@H]1C[C@H](C)CN[C@H]1[C@H]2C | – | patients, plasma | oral, 60 mg single, day -7, cycle 1 | – | Cmax | 28.2 ng/mL
CC(C)=CCC[C@](C)(O[C@@H]1O[C@H](CO)[C@@H](O)[C@H](O)[C@H]1O)[C@H]1CC[C@]2(C)[C@@H]1[C@H](O)C[C@@H]1[C@@]3(C)CC[C@H](O)C(C)(C)[C@@H]3[C@@H](O[C@@H]3O[C@H](CO)[C@@H](O)[C@H](O)[C@H]3O[C@@H]3O[C@@H](C)[C@H](O)[C@@H](O)[C@H]3O)C[C@]12C | – | rat, extracted tissue homogenate QC samples | 0.05 µg/mL, 24 h, 15 °C, autosampler | – | post-preparative stability accuracy | 105 ± 5.6%
COc1cccc2c1C(=O)c1c(O)c3c(c(O)c1C2=O)C[C@@](O)(C(=O)CO)C[C@@H]3O[C@H]1C[C@H](N)[C@H](O)[C@H](C)O1 | – | mouse, E0771 tumour-bearing, plasma | intravenous, 92 µmol/kg | – | terminal half-life | 13 h
C[C@H](Oc1ccc(-c2nc(-c3ccc4[nH]cnc4c3)no2)cc1C(F)(F)F)C(F)(F)F | – | cynomolgus monkey, aneurysm model, plasma | 0.1 mg/kg once daily, 8 h post-dose, 3 months dosing | – | plasma concentration | 19 ± 3.4 nM
COc1cc2c(cc1OC)[C@@H]1Cc3ccc(OC)c(OC)c3CN1CC2 | – | rat plasma QC sample | 3200 ng/mL nominal, 24 h, 23 °C, high QC level storage stability | – | measured concentration | 3180 ± 51.4 ng/mL
CNCc1ccc(-c2[nH]c3cc(F)cc4c3c2CCNC4=O)cc1 | – | human patients, plasma | oral, 600 mg twice daily, day 1, 12 h, arithmetic mean | – | AUC(0-t) | 7200 ng·h/mL
Cc1nc2cccc(OCC(C)(C)C(=O)NC(C)C)c2c(N)c1C(=O)O | – | female Sprague-Dawley rat, plasma | oral, 10 mg/kg | – | AUC(0-t) | 58.9 ng·h/mL

Structure (SMILES) | test | test system | conditions | scale | endpoint | result
COc1cccc(N2CCN(C3=Nc4c(F)cccc4[C@H](CC(=O)O)N3c3cc(C(F)(F)F)ccc3OC)CC2)c1 | UHPLC-MS/MS | healthy women, plasma | intravenous infusion, 960 mg single dose, 60 min infusion, HPβCD formulation | – | terminal half-life | 12.9 ± 4.5 h
N[C@@H](CC(=O)O)Cn1nnc(-c2ccc(Oc3ncc(Cl)cc3F)cc2)n1 | – | male beagle dog, plasma | oral, 3 mg/kg, 24 h | – | concentration | 5.3 ng/mL
COC(=O)C[C@](O)(CCCC(C)(C)O)C(=O)O[C@@H]1C(OC)=C[C@]23CCCN2CCc2cc4c(cc2[C@H]13)OCO4 | – | CD1 mouse, liver | oral, 1 mg/kg, 24 h, below quantification limit 1.00 ng/mL | – | tissue concentration | not detected
Cl.Cl.N[C@@H](CSSC[C@H](N)C(=O)N1CCOCC1)C(=O)N1CCOCC1 | – | Slc3a1 knockout male mice, urine | oral gavage, 29.3 µmol/kg daily, 1 week dosing, 4 h after last dose | – | urine concentration | 2.09 ± 0.62 µM
COc1cc(OC)c(/C=C/S(=O)(=O)Cc2ccc(OC)c(NCC(=O)O)c2)c(OC)c1 | – | cancer patients, phase I, plasma | oral, 560 mg twice daily, day 1 cycle 1 | – | Vss/F | 315 ± 285 L
NCCCC[C@@H]1NC(=O)[C@@H](Cc2c[nH]c3ccccc23)NC(=O)[C@H](c2ccccc2)NC(=O)[C@@H]2C[C@@H](OC(=O)NCCN)CN2C(=O)[C@H](Cc2ccccc2)NC(=O)[C@H](Cc2ccc(OCc3ccccc3)cc2)NC1=O | radioimmunoassay | healthy human male volunteers, plasma | subcutaneous, 200 µg | – | beta half-life | 7.8 ± 2.1 h
CN(C)C(=N)N=C(N)N | – | Sprague-Dawley rat, male, liver | oral, 1500 mg/kg, 6 h, single high dose | direction not given | hepatocyte vacuolization score | 0
CC(C)=CCC[C@](C)(O[C@@H]1O[C@H](CO)[C@@H](O)[C@H](O)[C@H]1O)[C@H]1CC[C@]2(C)[C@@H]1[C@H](O)C[C@@H]1[C@@]3(C)CC[C@H](O[C@@H]4O[C@H](CO)[C@@H](O)[C@H](O)[C@H]4O[C@@H]4O[C@H](CO)[C@@H](O)[C@H](O)[C@H]4O)C(C)(C)[C@@H]3CC[C@]12C | – | rat, extracted tissue homogenate QC samples | 0.2 µg/mL, 24 h, 15 °C, autosampler | – | post-preparative stability accuracy | 103 ± 8.5%
Cc1ccc(NC(=O)c2ccc(CN3CCN(C)CC3)cc2)cc1Nc1nccc(-c2cncc(-c3oncc3C)c2)n1 | – | Parkinson's disease patients, plasma | oral, 100 mg once daily, day 7, 7-day dosing, mean | – | dose-normalised AUC(0-inf) | 457 ng·h/mL/mg
CCOC(=O)C1=C[C@@H](OC(CC)CC)[C@H](NC(C)=O)[C@@H](N)C1 | – | healthy Indian human, plasma | oral, 75 mg single, test capsule fed | – | AUC(0-48 h) | 145 ± 32 ng·h/mL
COc1ccc(OC)c(-c2oc3c(OC)c(OC)c(OC)cc3c(=O)c2OC)c1 | – | C57BL/6 mouse, male, feces | oral, 1% w/w in diet, 6 weeks, orange peel extract diet | relative to: content in orange peel | tissue to peel content ratio | 69.6%
COc1cc2nccc(Oc3ccc(NC(=O)C4(C(=O)Nc5ccc(F)cc5)CC4)cc3)c2cc1OC | – | male Sprague-Dawley rat, hypoxic pulmonary hypertension | subcutaneous, 20 mg/kg, 14 days post-hypoxia, 3 weeks hypoxia | – | right ventricular systolic pressure | 36.8 ± 2.3 mmHg
COc1cc(/C=C/C(=O)CC(=O)/C=C/c2ccc(O)c(OC)c2)ccc1O | – | C57BL/6J mouse, olfactory lobes | 10 µg IN, 100 µg IP, 30 min, I-125 labelled | relative to: IN over IP | brain uptake ratio | 6.79
CCCOc1ccc([C@H]2CNC(=O)N2c2ccc3[nH]cnc3c2)cc1 | – | human, fasted, elderly, CSF | oral, 300 mg twice daily, capsule, 12 h, day 7, minimum, estimated | – | CSF concentration | 12.5 ng/mL
CC(C)[C@H](NC(=O)[C@@H]1CCCN1C(=O)[C@H](CCCNC(=N)N)NC(=O)[C@H](CS)NC(=O)[C@H](Cc1c[nH]c2ccccc12)NC(=O)[C@H](CCCNC(=N)N)NC(=O)[C@@H](Cc1ccccc1)NC(=O)[C@H](Cc1c[nH]cn1)NC(=O)[C@H](CCC(=O)O)NC(=O)[C@H](CS)NC(=O)[C@H](CS)NC(=O)[C@H](CCCCN)NC(=O)[C@@H]1CC(=O)N[C@@H](CCCNC(=N)N)C(=O)N[C@@H]([C@@H](C)O)C(=O)N[C@@H](CC(=O)O)C(=O)N[C@H](Cc2ccc(O)cc2)C(=O)N1)C(N)=O [technetium-99m labelled] | – | female C57 mouse, B16/F1 melanoma, tumour | intravenous, dose not given, 2 h, added: NDP-MSH 10 µg co-injected | – | tissue uptake | 2.85 ± 1.43 %ID/g
O=C(c1ccc(OCCN2CCCCC2)cc1)c1c(-c2ccc(O)cc2)sc2cc(O)ccc12 | – | healthy humans, plasma | oral, 60 mg, added: acute green tea | – | AUC(0-48 h) | 5.91 nM·h
CN[C@H](CC(C)C)C(=O)N[C@H]1C(=O)N[C@@H](CC(N)=O)C(=O)N[C@H]2C(=O)N[C@H]3C(=O)N[C@H](C(=O)N[C@H](C(=O)O)c4cc(O)cc(O)c4-c4cc3ccc4O)[C@H](O)c3ccc(c(Cl)c3)Oc3cc2cc(c3O[C@@H]2O[C@H](CO)[C@@H](O)[C@H](O)[C@H]2O[C@H]2C[C@](C)(N)[C@H](O)[C@H](C)O2)Oc2ccc(cc2Cl)[C@H]1O | microdialysis | pig, Danish Landrace, cancellous bone | intravenous, 1000 mg over 100 min, 450 min dosing interval, added: 1.0 µg/mL MIC | relative to: dosing interval | time above MIC | 89%

For quick reference, copied from above:
Structure (SMILES) | test | test system | conditions | scale | endpoint | result
Cc1[nH]c(=O)c(CNC(=O)c2ccc([N+](=O)[O-])s2)c2c1CCCC2 | U-HPLC | 20% DMSO in water | – | – | kinetic solubility | 130 µg/mL (≈ 373 µM)
CC[C@H](C)[C@@H]1NC(=O)[C@H](Cc2ccc(O)cc2)NC(=O)[C@@H](N)CSSC[C@@H](C(=O)N2CCC[C@H]2C(=O)N[C@@H](CC(C)C)C(=O)NCC(N)=O)NC(=O)[C@H](CC(N)=O)NC(=O)[C@H](CCC(N)=O)NC1=O | microdialysis, radioimmunoassay | knock-out male mice lacking compound, amygdala extracellular fluid | intranasal, 12 µg, incremental area over baseline | – | AUC above baseline | 254 ± 113 pg·30 min/sample
CN[C@H](CC(C)C)C(=O)N[C@H]1C(=O)N[C@@H](CC(N)=O)C(=O)N[C@H]2C(=O)N[C@H]3C(=O)N[C@H](C(=O)N[C@H](C(=O)O)c4cc(O)cc(O)c4-c4cc3ccc4O)[C@H](O)c3ccc(c(Cl)c3)Oc3cc2cc(c3O[C@@H]2O[C@H](CO)[C@@H](O)[C@H](O)[C@H]2O[C@H]2C[C@](C)(N)[C@H](O)[C@H](C)O2)Oc2ccc(cc2Cl)[C@H]1O | microdialysis | pig, Danish Landrace, cancellous bone | intravenous, 1000 mg over 100 min, 450 min dosing interval, added: 1.0 µg/mL MIC | relative to: dosing interval | time above MIC | 89%
